Measurements of several laboratories.
Every numbered part comes from another study and shows a few of its results, in no order.

Sample 1
Target: RNA binding protein fox-1 homolog 2, RRM domain, GST-SBP tag (RBFOX2, Homo sapiens, UniProt O43251-10, residues 100-194)
Technique: RNA Bind-n-Seq
Molecule type: RNA
Medium: in vitro
Tested at: 365 nM
Setting: natural RNA segment, single round, ends assumed
Baseline: no-protein control
Reading: higher = stronger binding
All sequences stand within: GGGAGUUCUACAGUCCGACGAUC … UGGAAUUCUCGGGUGCCAA
Residues (chain): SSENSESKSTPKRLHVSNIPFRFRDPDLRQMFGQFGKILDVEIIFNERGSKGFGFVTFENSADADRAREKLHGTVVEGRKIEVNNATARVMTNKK
| Oligonucleotide | RBNS enrichment (R) |
| --- | --- |
| GUCAGCCAUGAUGUCAUGUGUGUCAGUAGAGGGUCUCCUCUCCCUGCUGAGUAGUAUUCUAUCAUAUGGAUGGGCCUCGGGAUUUUCUUAGUUUUAAAACGAGUUGGUUU | 0.898 |
| AAGCUCUUUGACUUUGACAAGAGGUUCUAGUUAAAGCACACACUUAAUCUACAGCCACUCUCUACCUUGAGUCUAUCUAUGGUCAGUUGAAGAGUUUUAGAAGAAAUUCU | 0.291 |
| UAUAAUUUUCAUAUAGCCGUAUAAGGAUUGAUUUACCAUUUUUUGCCCAACAUGACAAUUCUGGCUAUGAAAAUUAUGUUUAAACUGUGUAUGAUCUAUUUUAUGUGCUC | 0.605 |
| GCCCACACUACAGGCCCGGAGCUUUGGGGCUGGGUACAUGUGCCAAGCCUCCCUCCCUGGGCUACAGGGCCUCCGGUCCUGCUCCCAUACCCAGGUUUGGUUCCUCUAGG | 0.266 |
| AAUCAAGUGGACACACUUUUGAUGUAUUUCUCAGUUACAAAGCUGACUUUUUUUUAAUGAAGGGAAUAAUUGCCAAGUACUUAAAUCUACCUGAGGUACACUUUUAAACC | 0.54 |
| CCUAAGGAGAUUCCACACAUGCGUAUCUCUGUUGCUUCUAUUGGCCUAAACCCACUACUGCCAAAGAACCCAGCAACAAACCUCCCGGCUAGGAGCUUUAGAAGUCUUUA | 0.313 |
| AUUCAGUUUCAGAGGGACAGUUUUGAGGAUUAAGACACUUGGAAACAGAAGAACUCUGGUAAUGCUUAGUCUUGUGAGAACCAGUUAUUCUGGGCUGUGAAGGCAGUUGC | 1.28 |
| UCACUAUGCGCUAAACGUAAUCCUGACUUUUUGACCCCAGUUACCAUUAAUAGUUUCUGGUUGACCAUUUGAACAUGUAUUAACUUAGGAAGACUAAUUGCCAAUAACGU | 0.523 |
| AGGUACACUGUUUCCAUGUUAUGUUUCUACACAUUGCUACCUCAGUGCUCCUGGAAACUUAGCUUUUGAUGUCUCCAAGUAGUCCACCUUCAUUUAACUCUUUGAAACUG | 0.335 |
| CCUUCAGCUGUCAGCUUUCUGGGGCUAACUUCUCUGCCUUUGUGGUUGGAGGCCUGAGGCCUCUUGGAACUCUUGCUAACCUGUUCAGAGCCAGGAAGGAGACUGCACAG | 0.309 |
| CCCUAAGGAUUUUCCUUUAAUUUCUCUGGAGUAAUACUGUACCAUACUGGUCUUUGCUUUUAGUAAUAAAACAUCAAAUUAGGUUUGGAGGGAACUUUGAUCUUCCUAAG | 0.252 |
| CUGUUUGGAUUUAUAUCCCUCUAAUGUUCUCCUUUAAUUUCACAUGAAAAAAAAAUCUCCUGUAUUUUUUUCAGUUAGUGGGAGAGCAGCAGAAAUAGAUAGAUGUGCUG | 0.438 |

Sample 2
Target: Hepatocyte nuclear factor 3-alpha (Foxa1, Mus musculus, UniProt P35582, residues 1-468, full length assumed)
Sequence of UniProt P35582 (whole entry, looked up): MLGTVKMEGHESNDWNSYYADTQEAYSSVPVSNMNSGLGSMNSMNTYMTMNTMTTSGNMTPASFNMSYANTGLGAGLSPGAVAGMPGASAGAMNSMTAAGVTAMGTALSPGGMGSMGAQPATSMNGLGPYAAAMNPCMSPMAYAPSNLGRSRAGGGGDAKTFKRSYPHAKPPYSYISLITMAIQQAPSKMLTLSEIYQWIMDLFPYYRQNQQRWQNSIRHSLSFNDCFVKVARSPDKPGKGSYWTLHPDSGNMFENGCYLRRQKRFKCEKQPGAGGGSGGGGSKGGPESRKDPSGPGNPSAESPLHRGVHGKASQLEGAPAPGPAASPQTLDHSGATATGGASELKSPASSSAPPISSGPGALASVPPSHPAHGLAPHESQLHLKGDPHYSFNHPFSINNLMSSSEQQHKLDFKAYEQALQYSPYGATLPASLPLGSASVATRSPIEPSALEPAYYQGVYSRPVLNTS
Technique: EMSA with sequencing
Molecule type: double-stranded DNA, one strand shown
Medium: in vitro
Tested at: 10 and 20 nM
Setting: whole designed probe, mean of two concentrations, ends assumed
Baseline: negative control set to 0
Reading: higher = stronger binding
All sequences stand within: GTGAGCGGTGCCCATTGATGGGGAAC … TTTCACTGGGATCGTGGGGAC
| Oligonucleotide | normalised bound fraction [ratio] |
| --- | --- |
| CTGAATACATCAAAATTGTGTGAGATTATTGTTACCAATAACAAATAAATCTACTTACAAGTGGACCTTATTGTTAGACATGGCATGGCAATGTAAACATAGAACCTTTGAATCAATAAATATAAAATTCATAAAGGATTACATTTTACAGTGGAACAAGTGGTTTCAAGTATAGCAAATCTGAAAATGAAAA | 0.5 |
| TCCTCTGACAGATCAAATTATTAAATTCTGCTTGGGGAAGGTATGGGGCACTCCTCTTGGTTGAAGCAATGCTGTACTTTTTATTCCTGCTGAGTAATTTGCCTCAAGTCAAACTACTTGCCCTAACTAATGATCAAACATATCCAGGAATTCTGTACAAGAAATGCATTCTGCTCTCCTTTGAAGTGCATTG | -0.00106 |
| TACCATTCAAGAAACCTTTTTTTTTTCTTTGCGTCTGTGAGACATATGAGAAAATCAATAAATTTACTTTCTTGGAAAAATAAACACTTCCTATGTAATCTAACATAGACCTTTAGAGCAGTATAAATTGTTTGTGAAAATAGTTTAATTGCAGCAAACACACAGAAAGGATTAACTTATTTTCAGATTTGGT | 0.231 |
| CTTTAATATTGTGGACTTGTGACTGGTTTGCCTTTCTTATTCAAGACAGTTTGATATGAATTATTTTGTTTTTAAAGGAACAAGAAAACTGATGTTTACATAGAGTTTATTATGAAAATATGGACAAATTATGTTTGTAAAATTTGCTGTGGTTCAATTTATCTAACAAAGCAAGAAGTGTAACACTTAATCT | 0.394 |
| TTGGAGACTAACAGAAGGAATATATATTTTTTGAAGAGAAAAAAAACACAATTATCTTATTTTTGTCCTGGCTCTAACTTTGGCCAGTGTCAAAGTAAACAGGATAGATGGCTTCTCCATGCTAAATGATGCTAGATTAACATTGAAAGAAAAATTATAGTGATCAGTTATTTCAGTTTCAAATGTCCCAAAT | 0.228 |
| ATCTTCCCCCTCTTCCTTGCCCCACCAGCTCACCTTCCCGGGTTATTTGCAGATAGGAAAATAAATAAAGCCGGCATTCGTTAACGCAGTTCACGCGCATACTGCTGTTTGCTCTGGATCTAACATGGTCCTTTGGCGACGCCAGGCTCCGGGAGAGCAAAGCACCGTGTCAGGGCCATGATCCGGGCTCGCC | 0.354 |
| ATCTTCCCCCTCTTCCTTGCCCCACCAGCTCACCTTCCCGGGTATCTGCAAATAAGTATTTATTTTCAAGCCGGCATTCGTTAACCCTCTTCACGCGCATACTGCCAGAGCAAACAGATCTAACATGGTCCTTTGGCGACGCCAGGCTCCGGGAGAGCAAAGCACCGTGTCAGGGCCATGATCCGGGGTGGCC | 0.252 |
| CCTTGTTATTTGCAGGTATCCAAATGTCTGCATGTGGGAGCATTCCTTGTGGATTAGGGTGTTAGTGTCTAGGAGTCTCCTCTTTTATGAAATGCAAACATTCTTTGAGCACAATTGCAACATCAGCTGTGATATTTACCTAAATGTTTCCCAAGGATAAGTGGCTTACGTCAGAGCCCTGAGGCTACAGGAT | 0.361 |

Sample 3
Target: RING finger protein unkempt homolog, zinc fingers 1-6, GST-SBP tag (UNK, Homo sapiens, UniProt Q9C0B0, residues 30-357)
Sequence of UniProt Q9C0B0 (30-357, looked up): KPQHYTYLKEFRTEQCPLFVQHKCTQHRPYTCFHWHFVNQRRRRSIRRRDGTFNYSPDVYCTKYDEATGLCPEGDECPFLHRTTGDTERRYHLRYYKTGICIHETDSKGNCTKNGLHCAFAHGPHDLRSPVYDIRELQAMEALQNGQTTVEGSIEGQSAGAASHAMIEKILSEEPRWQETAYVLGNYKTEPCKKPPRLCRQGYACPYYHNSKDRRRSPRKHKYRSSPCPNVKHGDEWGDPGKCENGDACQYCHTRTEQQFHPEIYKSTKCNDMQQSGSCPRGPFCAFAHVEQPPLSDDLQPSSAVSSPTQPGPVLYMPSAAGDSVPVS
Technique: RNA Bind-n-Seq
Molecule type: RNA
Medium: in vitro
Tested at: not given
Setting: RNA with constant flanks, human and mouse sites, ends assumed
Baseline: input RNA pool
Reading: higher = stronger binding
All sequences stand within: GGGAGUUCUACAGUCCGACGAUC … CAACAGAGGAUUGAGCAUCA
| Oligonucleotide | bound/input enrichment |
| --- | --- |
| GCAUCUAUCGAGUUUGCAAUGUCACAACCUCUCUGAUCUUGUGCUCAGCAUGAUUCUUUAAUAGAAGUUUUAUUUUUUCGUGCACUCUGCUAAUCAUGUGGGUGAGCCAGUGGAACAGCG | 0.455 ratio |
| CCGCGGCAAUUUGGUUCCGCCCUUCCCCAGCUCAAAUCGCGAGCCCCGCCCCAUUCCGCCCCGCCCCGCGCCGGGACCGGAGCCGCAGCCCGAGCGGCGGGGUGACCAUGGAGGAGGAAG | 0.202 ratio |
| CUAUGCCUAACAGAGCCCCAGUACAACUAUUUUGCAGAAUGGCUGUUACCCUAGAAUUACUAUAGCACAUAUUGAGAUAUAGUUGUACUCCCUAGUAGAUAGGAACUGACCCCAACAAUA | 4.25 ratio |
| CUCCCCGCCGCCGGCUUCCUGUACUGGGUCGGCGCGGGCACCGUGGCCUACCUAGCCCUGCGUAUUUCGUACUCGCUCUUCACGGCCCUCCGGGUCUGGGGAGUGGGGAAUGAGGCGGGG | 0.106 ratio |
| AAUCAUGGUGGCAUCUGUAAUUUUUUUCUGAUUAGCACCUAAAGAUCGGUUUAAAGUGCUUGGACUGCUUAUCCUAAAAUCGUGUCUAGUGCGCUCGAGGCAUCGGUCAUACAAAUGGGG | 0.301 ratio |
| GGAUGAAUGAGCAGAUAAAUAUUGAUGUCAGCAUCCUUGAACCAUAUCAAAGUGAGCAGUGUUUGGCUACUGCUUCUAUUUGAAAUGGUGCUGUGUUUUGGUUGUGGUCUGAAGCUUUGA | 0.388 ratio |
| AGAAAUGAAACUUCUCAAAUGAGCCAACCUGAGUCACAAGAUCACAGGUUUGUGCCAGCAACAGAAAGUGAAAAAAAAUUUCAGAAGAGACUUCAGGAAAUUCUCAAACAGAAUGAUUUC | 0.133 ratio |
| UUUACCAGUAAUGCCUUUAGAAAAUUAUCAAAUUCCUCUUCGAGUGUUUCACCCCUAAUUUUGUCUUCCAAUUUGCCUGUGAACAAUAAAACGGAACACAAUAAUAAUGACGCUAAACAG | 10 ratio |
| UGGAAAAACUGAAGCCCGAGCCUGCCCACAGCUAUGCUUUGGCCUCUCCAGCAGGGUGCUCCUGCUCUGCACUCCAGAAACACCCUGACAGGCUCAGAGAGGAGAUGGAAACUGACAUAC | 0.269 ratio |
| GAAUUGGGUGACCACGUGACCAACUUGCGCAAGAUGGGAGCGCCCGAAUCUGGCUUGGCGGAAUAUCUCUUUGACAAGCACACCCUGGGAGACAGUGAUAAUGAAAGCUAAGCCUCGGGC | 0.108 ratio |
| GUGGAGUUGAUGUCCUUCCCUGGCUCGCUACAGACGCACUUCCGCAAGUGUUACAGCUCUUUUAGAAUUUGUCUAGCAGGUUUUCUGACUUCGGUCGGAAAACCCCUCCCAAUUUCACUG | 0.407 ratio |

Sample 4
Target: Centromere-binding protein 1, full length, N-terminal tag (CBF1, Saccharomyces cerevisiae, UniProt P17106, residues 1-351)
Sequence of UniProt P17106 (whole entry, looked up): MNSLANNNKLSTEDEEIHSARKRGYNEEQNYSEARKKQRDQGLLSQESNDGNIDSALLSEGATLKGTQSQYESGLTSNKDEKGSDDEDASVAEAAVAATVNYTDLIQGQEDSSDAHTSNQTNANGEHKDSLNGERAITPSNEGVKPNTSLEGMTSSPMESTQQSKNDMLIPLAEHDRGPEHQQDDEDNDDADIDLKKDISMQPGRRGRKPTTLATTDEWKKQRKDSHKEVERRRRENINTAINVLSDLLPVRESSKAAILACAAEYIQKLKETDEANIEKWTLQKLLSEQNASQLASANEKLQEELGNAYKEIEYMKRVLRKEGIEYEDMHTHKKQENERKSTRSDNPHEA
Technique: protein-binding microarray
Molecule type: double-stranded DNA, one strand shown
Medium: in vitro
Tested at: 0.8 µM
Setting: whole 60-bp probe, no competitor
Reading: higher = stronger binding
All sequences stand within: … GTCTTGATTCGCTTGACGCTGCTG
| Oligonucleotide | fluorescence intensity [a.u.] |
| --- | --- |
| CTATTGACCCAGCGTGACGACAGTAGACTGTAATTC | 655 |
| GAAAAGCGTCTGAACCACATGCTTCTTCTATCTTAG | 606 |
| CTAAACAATCTTAGTCACCTTGTATTGATTCACTTC | 555 |
| CTAAAAAAGAAAATACACGTGCTGTTAATATACTTC | 6920 |
| GAAGAGGAAAATAGGCACATGATTCCTTTTCACTAG | 1370 |
| GAAATTTCCAGTGTGCACGGGTTGAAATAAATGTAG | 1140 |
| GAATAAATTCTGCAGAACGTGAAAGGTTCGATTTAG | 581 |
| CCTAACTACTATAGCGAGCACGTATAGCTTCGTACA | 531 |
| GAATATCTCTAGTATAACGTGCCGTATATTTCCTAG | 743 |
| GAAACCAGTGGCACACACGTGAACTACATCACTTAG | 1830 |
| CTAGGTGATATTTCGCTCGTGGAAAAGCTAATGTTC | 582 |
| CTATTTCGTGCCGCAAACGTGGAGATGGGAAAATTC | 563 |
| GAACGCTAACATTAACAGCTGATGACTTGAAGTTAG | 645 |
| GAACAGCATTGCGCTTGCGTGCCGCTCCGAGAATAG | 532 |
| CTAAGTTTTGAATAACACGTGCCTTTGATTTTTTTC | 9000 |
| TGTACGAAGCTATATCGTGTGATTATAGTAGTTAGG | 586 |

Excerpt of the above (sample 1):
| Oligonucleotide | RBNS enrichment (R) |
| --- | --- |
| CCUAAGGAGAUUCCACACAUGCGUAUCUCUGUUGCUUCUAUUGGCCUAAACCCACUACUGCCAAAGAACCCAGCAACAAACCUCCCGGCUAGGAGCUUUAGAAGUCUUUA | 0.313 |
| AGGUACACUGUUUCCAUGUUAUGUUUCUACACAUUGCUACCUCAGUGCUCCUGGAAACUUAGCUUUUGAUGUCUCCAAGUAGUCCACCUUCAUUUAACUCUUUGAAACUG | 0.335 |
| GUCAGCCAUGAUGUCAUGUGUGUCAGUAGAGGGUCUCCUCUCCCUGCUGAGUAGUAUUCUAUCAUAUGGAUGGGCCUCGGGAUUUUCUUAGUUUUAAAACGAGUUGGUUU | 0.898 |
| CCUUCAGCUGUCAGCUUUCUGGGGCUAACUUCUCUGCCUUUGUGGUUGGAGGCCUGAGGCCUCUUGGAACUCUUGCUAACCUGUUCAGAGCCAGGAAGGAGACUGCACAG | 0.309 |
| AAGCUCUUUGACUUUGACAAGAGGUUCUAGUUAAAGCACACACUUAAUCUACAGCCACUCUCUACCUUGAGUCUAUCUAUGGUCAGUUGAAGAGUUUUAGAAGAAAUUCU | 0.291 |
| UCACUAUGCGCUAAACGUAAUCCUGACUUUUUGACCCCAGUUACCAUUAAUAGUUUCUGGUUGACCAUUUGAACAUGUAUUAACUUAGGAAGACUAAUUGCCAAUAACGU | 0.523 |
| AAUCAAGUGGACACACUUUUGAUGUAUUUCUCAGUUACAAAGCUGACUUUUUUUUAAUGAAGGGAAUAAUUGCCAAGUACUUAAAUCUACCUGAGGUACACUUUUAAACC | 0.54 |
